Assay results pooled from the literature.
Numbered parts are unrelated; each lists some results of a single study.
UniProt O15294, sequence (whole entry, looked up): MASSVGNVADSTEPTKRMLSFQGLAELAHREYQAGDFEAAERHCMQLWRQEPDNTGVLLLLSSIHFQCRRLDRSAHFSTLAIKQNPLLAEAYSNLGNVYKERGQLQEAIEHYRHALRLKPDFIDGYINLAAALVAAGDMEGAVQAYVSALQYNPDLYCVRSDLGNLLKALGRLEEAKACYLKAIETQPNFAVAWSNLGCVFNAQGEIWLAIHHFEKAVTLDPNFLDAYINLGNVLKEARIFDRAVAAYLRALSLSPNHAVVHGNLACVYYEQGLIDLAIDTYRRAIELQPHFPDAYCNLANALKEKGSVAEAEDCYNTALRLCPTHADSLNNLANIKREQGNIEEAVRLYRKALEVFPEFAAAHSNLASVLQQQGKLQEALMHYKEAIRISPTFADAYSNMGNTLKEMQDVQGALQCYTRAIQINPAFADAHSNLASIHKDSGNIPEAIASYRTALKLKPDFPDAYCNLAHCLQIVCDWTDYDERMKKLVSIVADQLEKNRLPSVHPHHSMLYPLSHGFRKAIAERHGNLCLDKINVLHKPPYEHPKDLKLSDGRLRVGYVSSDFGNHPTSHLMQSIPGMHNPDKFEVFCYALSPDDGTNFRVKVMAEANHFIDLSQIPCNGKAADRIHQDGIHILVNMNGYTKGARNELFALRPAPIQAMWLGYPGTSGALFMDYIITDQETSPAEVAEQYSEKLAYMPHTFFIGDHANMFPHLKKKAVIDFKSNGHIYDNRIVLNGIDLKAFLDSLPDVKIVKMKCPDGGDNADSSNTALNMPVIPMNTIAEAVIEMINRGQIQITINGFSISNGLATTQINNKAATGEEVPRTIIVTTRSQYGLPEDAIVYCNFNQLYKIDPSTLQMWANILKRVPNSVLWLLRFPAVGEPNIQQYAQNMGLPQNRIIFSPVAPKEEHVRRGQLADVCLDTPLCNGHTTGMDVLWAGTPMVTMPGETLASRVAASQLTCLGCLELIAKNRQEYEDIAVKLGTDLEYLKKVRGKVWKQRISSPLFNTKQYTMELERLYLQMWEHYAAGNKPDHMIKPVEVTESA

Study 1
Target: Interferon regulatory factor 7, full length, phosphomimetic (IRF7, Homo sapiens, UniProt Q92985, residues 1-503, S471D/S472D/S475D/S476D/S477D/S483D/S484D/S487D)
Technique: protein-binding microarray
Form: double-stranded DNA, one strand shown
Medium: in vitro
Tested at: 2200 nM top
Setting: 60-bp whole probe
Together with: salmon DNA 0.4 mg/ml
Baseline: random background probes
Direction: higher = stronger binding
Constant ends, left off below: GCCTAGCAC … GTCTTGATTCGCTTGACGCTGCTG
Target sequence (chain): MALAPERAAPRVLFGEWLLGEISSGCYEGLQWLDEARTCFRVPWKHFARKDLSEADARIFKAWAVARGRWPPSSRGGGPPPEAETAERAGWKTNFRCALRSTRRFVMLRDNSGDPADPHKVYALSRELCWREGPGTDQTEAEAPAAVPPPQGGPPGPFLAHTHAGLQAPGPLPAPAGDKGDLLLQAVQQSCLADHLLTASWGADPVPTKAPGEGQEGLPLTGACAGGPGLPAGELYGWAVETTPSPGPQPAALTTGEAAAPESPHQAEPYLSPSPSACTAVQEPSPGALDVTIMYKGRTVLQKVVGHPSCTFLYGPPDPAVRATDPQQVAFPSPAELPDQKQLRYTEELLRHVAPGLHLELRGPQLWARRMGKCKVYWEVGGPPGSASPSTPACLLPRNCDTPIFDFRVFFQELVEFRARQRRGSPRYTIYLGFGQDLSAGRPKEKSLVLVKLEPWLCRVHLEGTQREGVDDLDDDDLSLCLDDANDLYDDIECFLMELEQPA
Under “fitted relative affinity”, `GACGATCTAAGTATCGAGACGTGCTAG` is recorded as 0.049 z-score.
Under “fitted relative affinity”, `GACGATATCAGTCTCGGGACGTGCTAG` is recorded as 0.191 z-score.
For `TTAGATCTCAGTCTCGATGAGTGCTAG`, “fitted relative affinity” read -0.00664 z-score.
`GACGGATTGGGTCTCGGGACGTGCTAG` — result for “fitted relative affinity”: -0.162 z-score.
`GACGGTTTCCGTCTCGGGACGTGCTAG`: “fitted relative affinity” 2.04 z-score.
Under “fitted relative affinity”, `CAAGTTACGGAATTTCCCTCTGTGCTA` is recorded as 1.22 z-score.
Under “fitted relative affinity”, `TTAGGTCTCCTTCTCCTTTAGTGCTAG` is recorded as 1.04 z-score.
`TCAAGTTTACCCATCTCCAGGTGCTAG` — result for “fitted relative affinity”: 0.687 z-score.

Study 2
Target: TAR DNA-binding protein 43, full length, His tag (TARDBP, Homo sapiens, UniProt Q13148, residues 1-414)
Technique: RNA Bind-n-Seq
Form: RNA
Medium: in vitro
Tested at: 20 nM
Setting: 6-mer, flanks averaged, single round
Together with: 150 mM LiCl
Baseline: input library
Direction: higher = stronger binding
`AAGUCA`: “6-mer enrichment (R)” 0.81.
`CGGUGA`: “6-mer enrichment (R)” 0.991.
`CUCCCC` — result for “6-mer enrichment (R)”: 1.27.
`GUCAAG` — result for “6-mer enrichment (R)”: 0.924.
For `AUAGAU`, “6-mer enrichment (R)” read 0.866.
For `AAGUGC`, “6-mer enrichment (R)” read 0.973.
For `CAUCGA`, “6-mer enrichment (R)” read 0.786.
Under “6-mer enrichment (R)”, `UAAAUA` is recorded as 0.961.

Study 3
Target: RNA binding protein fox-1 homolog 2, RRM domain, GST-SBP tag (RBFOX2, Homo sapiens, UniProt O43251-10, residues 100-194)
Technique: RNA Bind-n-Seq
Form: RNA
Medium: in vitro
Tested at: 365 nM
Setting: natural RNA segment, single round, ends assumed
Baseline: no-protein control
Direction: higher = stronger binding
Constant ends, left off below: GGGAGUUCUACAGUCCGACGAUC … UGGAAUUCUCGGGUGCCAA
Target sequence (chain): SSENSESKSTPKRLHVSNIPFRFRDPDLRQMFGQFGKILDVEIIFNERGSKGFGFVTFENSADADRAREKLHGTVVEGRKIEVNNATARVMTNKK
`GGCUGGUACCCUUCCCAGAGUUACAGAAUCUUAGGUGCCGUCUCUAGUCUGUGAGGGAGGAACUCCCAGCAUCCCCAUUGCCCACAAAUGGAAUCCUCACUGUAUCCACU` — result for “RBNS enrichment (R)”: 3.6.
`UGUCUUGAUAAGAGCAGAUCUGGGGACUGAUCGGAUUGGCAGGAAAAGAACAGAGUGCAUCUCUUGGGAUGGGCUUCUCUCGGAGUGUAAAAGCAAGGGGCCAGGAUUGU`: “RBNS enrichment (R)” 0.365.
`AUGUUAGGCACUCCUCUGACCUGAAUAAGUUUCCUUUCUCCUUUAUCAGUUCAAGGUGGGAGUCUUUGCUCUCAUCACCUGCAGUUCCACCUUGUGUUCAGAAAGCAAAA` — result for “RBNS enrichment (R)”: 0.356.
`UAGCUCUUUCUGUUCUGCCAUUCCCAACAUUCCUGGGGGAAAGGAGACUCAAUGAGUUAAUACUAUUUCACUGAGCCCAAGAUGGAAACUUGGUUUGACCUAAAACAUCU` — result for “RBNS enrichment (R)”: 0.308.
For `AUGACAGAAGUUCGUAUUACGCCUUGGAAGGUCUAGGUGGAGAUCACCACCAGCAUUCUCUGCCUGUGGGGUUGUGGGGCUGGUGCUUUCUCCAUUUCUGAGGGUCAGGA`, “RBNS enrichment (R)” read 0.712.
For `CUCCUACUUUUGUCCACCACCCCUGCCUCCUGGAUCUUCUCCCACUUUUUUUUUCAGCUUUAGGACCUGGGGAGAUCCUGUGAGUCAAGGCAGACACCCAAUCCUGCCCC`, “RBNS enrichment (R)” read 1.17.
For `UGUGAGAGACUUGUAGGAAUUUUUUUCUUCUCCUAGCGAAGUCAAAGCUCUCUCUGAAUGUACUGUGUGACAAUGCAUCAUGCAUGAACCUUCGGUCAGGGAUGUCGUUG`, “RBNS enrichment (R)” read 0.962.
`GAACCUCUUAAAGGACAACUUUGAUUUCCUUCUUCGUGUGAAGAUGCUGGAUAGUACCCAAAUCACUUAAAACCUGUUUCCAUUCGCUUUUUACUUAAAAAUAAACAUUU` — result for “RBNS enrichment (R)”: 0.271.

Further values, each from its own experiment
`HFASPYYTQWHGHWL`: “enrichment fold change” 4.35 (UDP-N-acetylglucosamine--peptide N-acetylglucosaminyltransferase 110 kDa subunit (OGT, Homo sapiens, UniProt O15294); binding, phage display NGS; peptide; concentration not given; baseline: input library).

For quick reference, copied from above (study 1):
Under “fitted relative affinity”, `GACGATCTAAGTATCGAGACGTGCTAG` is recorded as 0.049 z-score.
`TCAAGTTTACCCATCTCCAGGTGCTAG` — result for “fitted relative affinity”: 0.687 z-score.
Under “fitted relative affinity”, `GACGATATCAGTCTCGGGACGTGCTAG` is recorded as 0.191 z-score.
Under “fitted relative affinity”, `TTAGGTCTCCTTCTCCTTTAGTGCTAG` is recorded as 1.04 z-score.
